# Experimental data collected from several papers.
# Lines come from different studies, so protocols differ. Several values in a cell are separate wells, animals, samples, runs or records. ± gives the spread as reported.
# CAMK2D: Calcium/calmodulin-dependent protein kinase type II subunit delta (CAMK2D, Homo sapiens, UniProt Q13557)
# UniProt Q13557, sequence (whole entry, looked up): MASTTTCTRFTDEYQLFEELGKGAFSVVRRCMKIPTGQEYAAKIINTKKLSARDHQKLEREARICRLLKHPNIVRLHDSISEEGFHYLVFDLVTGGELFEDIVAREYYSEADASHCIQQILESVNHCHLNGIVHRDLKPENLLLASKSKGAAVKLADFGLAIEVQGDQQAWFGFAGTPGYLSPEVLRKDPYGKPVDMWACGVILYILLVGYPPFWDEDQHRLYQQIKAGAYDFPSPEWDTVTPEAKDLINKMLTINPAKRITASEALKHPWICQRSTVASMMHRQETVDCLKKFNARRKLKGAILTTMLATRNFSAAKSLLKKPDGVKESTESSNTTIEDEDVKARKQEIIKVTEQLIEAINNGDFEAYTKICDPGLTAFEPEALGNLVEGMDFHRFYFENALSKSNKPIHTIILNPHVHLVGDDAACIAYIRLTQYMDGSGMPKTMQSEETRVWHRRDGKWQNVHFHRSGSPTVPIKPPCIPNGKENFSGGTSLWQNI
# UniProt P37023, sequence (whole entry, looked up): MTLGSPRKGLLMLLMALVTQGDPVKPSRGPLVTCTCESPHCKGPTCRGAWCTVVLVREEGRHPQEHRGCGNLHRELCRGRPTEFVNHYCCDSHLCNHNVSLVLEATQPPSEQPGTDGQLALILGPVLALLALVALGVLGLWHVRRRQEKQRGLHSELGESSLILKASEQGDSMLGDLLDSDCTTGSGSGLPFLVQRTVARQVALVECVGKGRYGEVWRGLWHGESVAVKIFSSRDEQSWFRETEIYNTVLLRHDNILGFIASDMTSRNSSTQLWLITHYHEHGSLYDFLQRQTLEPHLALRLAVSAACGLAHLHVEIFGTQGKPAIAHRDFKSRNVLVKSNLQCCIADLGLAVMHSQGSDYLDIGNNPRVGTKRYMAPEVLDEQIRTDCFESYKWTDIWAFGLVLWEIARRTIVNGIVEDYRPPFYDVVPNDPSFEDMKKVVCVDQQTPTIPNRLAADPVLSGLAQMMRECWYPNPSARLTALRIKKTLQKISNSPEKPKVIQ
# UniProt Q05513, sequence (whole entry, looked up): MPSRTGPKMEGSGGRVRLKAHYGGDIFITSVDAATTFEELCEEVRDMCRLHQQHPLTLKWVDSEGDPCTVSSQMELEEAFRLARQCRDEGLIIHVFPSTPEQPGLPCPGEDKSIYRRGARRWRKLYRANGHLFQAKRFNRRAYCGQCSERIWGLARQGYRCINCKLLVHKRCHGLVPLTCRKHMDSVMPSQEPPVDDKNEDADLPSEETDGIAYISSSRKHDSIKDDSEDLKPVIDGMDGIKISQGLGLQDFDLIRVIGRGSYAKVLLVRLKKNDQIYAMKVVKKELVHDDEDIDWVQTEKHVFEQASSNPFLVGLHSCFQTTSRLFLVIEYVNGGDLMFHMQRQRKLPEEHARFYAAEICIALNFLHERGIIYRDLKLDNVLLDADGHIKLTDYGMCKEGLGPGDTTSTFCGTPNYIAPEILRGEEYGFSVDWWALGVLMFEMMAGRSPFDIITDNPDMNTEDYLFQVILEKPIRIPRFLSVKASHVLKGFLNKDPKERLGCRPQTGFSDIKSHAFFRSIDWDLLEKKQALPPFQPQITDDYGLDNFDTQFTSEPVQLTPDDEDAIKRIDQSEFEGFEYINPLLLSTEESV
Compound,tested on,assay,system,setting,how to read,measurement,result
O=P1(O)CC=Cc2ccccc2O1,,HPLC-UV,50 mM PBS,"16 h, pH 7.4, 25 °C, upper limit 2.5 mg/mL",,kinetic solubility,2300 µg/mL
CC(C)N1CCCCC1C(=O)NC(Cc1ccc(-c2ccccc2)cc1)B(O)O (stereo not shown),,,"SCID mouse, P. falciparum model, blood","oral, 25 mg/kg, 4 h",,blood concentration,18 ng/mL
CC(CCC(=O)NCC(=O)O)C1CCC2C3C(O)CC4CC(OC5OC(C(=O)O)C(O)C(O)C5O)CCC4(C)C3CCC12C (stereo not shown),,,human men,"dose not given, SLCO1B1 *14/*35",,plasma concentration,27.1 ng/mL
CN(C)[C@H]1C[C@@]23CC[C@@]4(O2)C(=CC[C@]2(C)[C@@H](c5ccc6ccncc6c5)CC[C@H]24)C=C3[C@@H](O)[C@@H]1O,CAMK2D,"ATP probe labelling, inhibitor, KiNativ profiling",,0.1 µM,,inhibition,-7.4%
CC(C)[C@H]1NC(=O)C[C@H]2/C=C/CCSSC[C@@H](NC1=O)C(=O)N[C@H](Cc1cccc3ccccc13)C(=O)NCC(=O)O2,"PRKCZ (Homo sapiens, UniProt Q05513)","enzyme activity, inhibitor",,10 µM,,inhibition,3.1%
CC(C)(C)C(=O)OCOP(=O)(OCOC(=O)C(C)(C)C)C1CCCN(O)C1=O (stereo not shown),TK-10,,,,,log GI50,-6.27 log M
CC[C@H](C)[C@H](NC(=O)[C@H](CCCCN)NC(=O)CNC(=O)[C@H](CC(C)C)NC(=O)[C@H](Cc1ccccc1)NC(=O)[C@H](CCCCN)NC(=O)[C@H](CO)NC(=O)[C@H](Cc1ccccc1)NC(=O)[C@H](Cc1c[nH]c2ccccc12)NC(=O)[C@H](CCC(N)=O)NC(=O)[C@@H](NC(=O)[C@H](Cc1ccccc1)NC(=O)CCCCCNC(=O)CN1CCN(CC(=O)O)CCN(CC(=O)O)CCN(CC(=O)O)CC1)C(C)C)C(=O)N[C@@H](CCC(=O)O)C(=O)N1CCC[C@H]1C(=O)N[C@@H](CC(=O)O)C(=O)N[C@H](C(=O)N[C@@H](CO)C(=O)N[C@@H](CCC(N)=O)C(=O)N[C@H](C(=O)N[C@@H](CCC(N)=O)C(=O)N[C@@H](CC(=O)O)C(=O)N1CCC[C@H]1C(=O)N[C@@H](CC(N)=O)C(=O)N[C@@H](CC(=O)O)C(=O)N[C@@H](CCC(N)=O)C(=O)N[C@@H](Cc1ccc(O)cc1)C(=O)N[C@@H](CCC(=O)O)C(=O)N1CCC[C@H]1C(=O)N[C@@H](Cc1ccccc1)C(=O)O)C(C)C)C(C)C [copper-64 labelled],,dynamic PET,"mouse, CT26 tumour, untreated, tumour","intravenous, 100 µCi/mouse, 1620 s",,SUVmean,0.72 SUV
Cc1nc2cccc(OCC(C)(C)C(=O)NC(C)C)c2c(N)c1C(=O)[O-].[Na+],Salmonella typhimurium,,TA100,"0.32 mg per plate, without S9, plate incorporation",,revertant colonies per plate,149 ± 7
COc1cnc2cccc(N3CCc4c(cc(Cn5ccnc5)cc4-c4cn(C)nc4C(F)(F)F)C3=O)c2c1,,,"BALB/c nude mice, MV4-11 xenograft","intraperitoneal, 50 mg/kg, day 24",,body weight,22.4 g and 20.2 g and 21.8 g and 24.8 g and 23.4 g and 21.4 g and 22.7 g and 23.7 g
CSCC[C@H](N)C(=O)N[C@@H](C)C(=O)N[C@@H](CCCNC(=N)N)C(=O)N[C@@H](CCCNC(=N)N)C(=O)N[C@@H](CC(=O)O)C(=O)N[C@@H](CCCCN)C(=O)N[C@H](C(=O)N[C@@H](CC(=O)O)C(=O)N[C@@H](Cc1ccccc1)C(=O)N[C@@H](C)C(=O)N[C@@H](CCCNC(=N)N)C(=O)N[C@@H](CCCNC(=N)N)C(=O)N[C@@H](CCCNC(=N)N)C(=O)N[C@@H](CCCNC(=N)N)C(=O)NCCCCCC(=O)NCCCCC(NC(=O)CCCCCNC(=O)[C@H](CCCNC(=N)N)NC(=O)[C@H](CCCNC(=N)N)NC(=O)[C@H](CCCNC(=N)N)NC(=O)[C@H](CCCNC(=N)N)NC(=O)[C@H](C)NC(=O)[C@H](Cc1ccccc1)NC(=O)[C@H](CC(=O)O)NC(=O)[C@@H](NC(=O)[C@H](CCCCN)NC(=O)[C@H](CC(=O)O)NC(=O)[C@H](CCCNC(=N)N)NC(=O)[C@H](CCCNC(=N)N)NC(=O)[C@H](C)NC(=O)[C@@H](N)CCSC)[C@@H](C)O)C(=O)NCCCCC(NC(=O)C(CCCCNC(=O)CCCCCNC(=O)[C@H](CCCNC(=N)N)NC(=O)[C@H](CCCNC(=N)N)NC(=O)[C@H](CCCNC(=N)N)NC(=O)[C@H](CCCNC(=N)N)NC(=O)[C@H](C)NC(=O)[C@H](Cc1ccccc1)NC(=O)[C@H](CC(=O)O)NC(=O)[C@@H](NC(=O)[C@H](CCCCN)NC(=O)[C@H](CC(=O)O)NC(=O)[C@H](CCCNC(=N)N)NC(=O)[C@H](CCCNC(=N)N)NC(=O)[C@H](C)NC(=O)[C@@H](N)CCSC)[C@@H](C)O)NC(=O)CCCCCNC(=O)[C@H](CCCNC(=N)N)NC(=O)[C@H](CCCNC(=N)N)NC(=O)[C@H](CCCNC(=N)N)NC(=O)[C@H](CCCNC(=N)N)NC(=O)[C@H](C)NC(=O)[C@H](Cc1ccccc1)NC(=O)[C@H](CC(=O)O)NC(=O)[C@@H](NC(=O)[C@H](CCCCN)NC(=O)[C@H](CC(=O)O)NC(=O)[C@H](CCCNC(=N)N)NC(=O)[C@H](CCCNC(=N)N)NC(=O)[C@H](C)NC(=O)[C@@H](N)CCSC)[C@@H](C)O)C(N)=O)[C@@H](C)O (stereo partly shown),,,"mouse C57BL/6 female, spine","6 h, radioiodinated peptide",reference: total radioactivity,tissue distribution,6.21% and 6.25%
C#Cc1c(F)ccc2cc(O)cc(-c3ncc4c(N5CC6CCC(C5)N6C(=O)OC(C)OC(=O)c5cccnc5)nc(OC[C@@]56CCCN5C[C@H](F)C6)nc4c3F)c12 (stereo partly shown),,chemical stability,simulated intestinal fluid,"1 µM, 30 min",,compound remaining,71%
Cc1ccccc1-c1ccc(-c2nc(-c3ccc(CN(C)CCCC(=O)O)c([18F])c3)no2)cc1C(F)(F)F,,,"rat, muscle",30 min,,tracer uptake,0.14 %ID/g
CCN(CC)CCOc1ccc(-c2nnn(Cc3ccc(OC)cc3)c2N)cc1,,,rat plasma,120 min,,remaining compound,101%
CSCC[C@@H]1NC(=O)[C@H](C(C)C)NC(=O)[C@H](CCCNC(=N)N)NC(=O)[C@@H]2CCCN2C(=O)CNC(=O)[C@@H](NC(=O)CNC(=O)[C@H](CO)NC(=O)CNC(=O)[C@H](CO)NC(=S)Nc2ccc(C[C@H]3CN(CC(=O)O)CCN(CC(=O)O)CCN3CC(=O)O)cc2)CSSC[C@@H](C(N)=O)NC(=O)[C@@H]2CCCN2C(=O)CNC(=O)[C@H](CCC(=O)O)NC(=O)[C@H](CC(=O)O)NC(=O)[C@H](CC(=O)O)NC(=O)CNC(=O)[C@H](CC(C)C)NC(=O)[C@H](Cc2c[nH]cn2)NC(=O)[C@H](CC(C)C)NC(=O)CNC(=O)[C@H](Cc2c[nH]cn2)NC1=O [copper-64 labelled],,dynamic PET,"CD rat, myocardial infarction model, left ventricular blood pool","intravenous, 18.5 MBq, 5 to 60 min",,half-life,19.4 ± 1.5 min
O=C(c1cc(Cc2n[nH]c(=O)c3ccccc23)ccc1F)N1CC(CNC2CC2)C1,,,"Wistar Han rat, female, blood","oral, 15 mg/kg daily, 4 weeks",,haemoglobin,14.3 ± 0.8 g/dL
COc1ccccc1-c1n[nH]c2nc(NC3CCN(C(=O)Cc4ccc(F)cc4F)CC3)ncc12,,"bead binding, competition bead pull-down, refers to: LINJ.28.2080",Leishmania donovani extract,10 µM,reference: vehicle,relative abundance,1.07
N=C(N)NCCC[C@@H](NC(=O)[C@H](N)Cc1c[nH]c2ccccc12)C(=O)N[C@H](CCCCN)C(=O)N[C@H](Cc1c[nH]c2ccccc12)C(=O)N[C@H](CCCNC(=N)N)C(=O)N[C@H](CCCCN)C(=O)N[C@H](Cc1c[nH]c2ccccc12)C(=O)N[C@H](CCCNC(=N)N)C(=O)N[C@H](CCCCN)C(=O)N[C@H](Cc1c[nH]c2ccccc12)C(=O)N[C@H](CCCNC(=N)N)C(=O)N[C@H](CCCCN)C(N)=O,,,"mouse, heart","intravenous, 20 mg/kg single dose, 7 days",,organ index,0.448
CC(C)[C@@H]1NC(=O)CNC(=O)[C@H](CC(N)=O)NC(=O)[C@H](CCCNC(=N)N)NC(=O)[C@H](Cc2ccc(O)cc2)NC(=O)[C@H](C(C)C)NC(=O)[C@@H](NC(=O)[C@@H](NC(=O)[C@H](CC(N)=O)NC(=O)[C@H](Cc2c[nH]c3ccccc23)NC(=O)[C@H](C)NC(=O)[C@H](Cc2ccccc2)NC(=O)CNC(=O)[C@H](CCCCN)NC(=O)[C@H](Cc2ccccc2)NC(=O)[C@H](Cc2ccccc2)NC(=O)[C@H](CCCCN)NC(=O)OCC2c3ccccc3-c3ccccc32)C(C)C)CSSC[C@@H](C(=O)N[C@@H](Cc2c[nH]cn2)C(=O)N[C@@H](CCCNC(=N)N)C(=O)N[C@@H](CCCNC(=N)N)C(=O)N[C@@H](C)C(=O)N[C@@H](CC(N)=O)C(N)=O)NC(=O)[C@H](C(C)C)NC(=O)[C@H](CCCNC(=N)N)NC1=O,,,"ICR mouse, blood","intramammary, 10 mg/kg, day 5, 3 d dosing",,MCH,13.8 ± 0.17 pg
C=C/C=C/C[C@@H](C)[C@@H](O)[C@H]1C(=O)N[C@@H](CC)C(=O)N(C)CC(=O)N(C)[C@@H](CC(C)C)C(=O)N[C@@H](C(C)C)C(=O)N(C)[C@@H](CC(C)C)C(=O)N[C@@H](C)C(=O)N[C@H](C)C(=O)N(C)[C@@H](CC(C)C)C(=O)N(C)[C@@H](CC(C)C)C(=O)N(C)[C@@H](C(C)C)C(=O)N1C,,,"Wistar Kyoto rat, male, plasma","ip, 0.5 mg/kg/day, day 18",,"plasma Na+ level, median",142 mmol/L
COc1ccccc1-c1n[nH]c2nc(N[C@H]3CC[C@H](NS(=O)(=O)CC(C)C)CC3)ncc12,,"bead binding, competition bead pull-down, refers to: LINJ.36.2140",Leishmania donovani extract,10 µM,reference: vehicle,relative abundance,0.89
CS(C)(=O)=Nc1ccc(-c2ccc(-c3nc4cc(O[C@@H]5CO[C@H]6[C@@H]5OC[C@H]6O)[nH]c4cc3F)cc2)cc1,"ACVRL1 (Homo sapiens, UniProt P37023)","enzyme activity, inhibitor",,10 µM,,inhibition,0%
N#[11C]c1ccc(-c2csc(NN=C3CCCC3)n2)cc1,,radio-HPLC,"C57BL/6 mouse, heart","intravenous, 37 MBq, 5 min",,unchanged compound,52.7% and 53%
O=C1NC(=O)c2c1c1cc(F)c[n+]3c1c1c2c2cc(O)ccc2[n]1[Ru-4]312([N]=C=S)[S+]3CC[S+]1CC[S+]2CC3 (stereo not shown),CAMK2D,enzyme activity,,"100 nM, human enzyme, together with: 10 µM ATP",reference: untreated,remaining activity,5%
O=C1NC2(CC2)COc2ncc(F)cc2[C@H]2COCCN2c2ccn3ncc1c3n2,,,"Sprague-Dawley rat, male, serum","oral, 10 mg/kg/day, 4 weeks daily, end of treatment",,alkaline phosphatase activity,139 ± 22.4 U/L
O=C(CN1CCN(CC(=O)NCP(=O)([O-])[O-])CCN(CC(=O)NCP(=O)([O-])[O-])CCN(CC(=O)NCP(=O)([O-])[O-])CC1)NCP(=O)([O-])[O-].[Gd+3],,,"Sprague-Dawley rat, bone","intravenous, dose not given, 2 h",,biodistribution,32.9 ± 8.45 % injected dose/organ

# Some of these lines once more:
Compound,tested on,assay,system,setting,how to read,measurement,result
CSCC[C@@H]1NC(=O)[C@H](C(C)C)NC(=O)[C@H](CCCNC(=N)N)NC(=O)[C@@H]2CCCN2C(=O)CNC(=O)[C@@H](NC(=O)CNC(=O)[C@H](CO)NC(=O)CNC(=O)[C@H](CO)NC(=S)Nc2ccc(C[C@H]3CN(CC(=O)O)CCN(CC(=O)O)CCN3CC(=O)O)cc2)CSSC[C@@H](C(N)=O)NC(=O)[C@@H]2CCCN2C(=O)CNC(=O)[C@H](CCC(=O)O)NC(=O)[C@H](CC(=O)O)NC(=O)[C@H](CC(=O)O)NC(=O)CNC(=O)[C@H](CC(C)C)NC(=O)[C@H](Cc2c[nH]cn2)NC(=O)[C@H](CC(C)C)NC(=O)CNC(=O)[C@H](Cc2c[nH]cn2)NC1=O [copper-64 labelled],,dynamic PET,"CD rat, myocardial infarction model, left ventricular blood pool","intravenous, 18.5 MBq, 5 to 60 min",,half-life,19.4 ± 1.5 min
N=C(N)NCCC[C@@H](NC(=O)[C@H](N)Cc1c[nH]c2ccccc12)C(=O)N[C@H](CCCCN)C(=O)N[C@H](Cc1c[nH]c2ccccc12)C(=O)N[C@H](CCCNC(=N)N)C(=O)N[C@H](CCCCN)C(=O)N[C@H](Cc1c[nH]c2ccccc12)C(=O)N[C@H](CCCNC(=N)N)C(=O)N[C@H](CCCCN)C(=O)N[C@H](Cc1c[nH]c2ccccc12)C(=O)N[C@H](CCCNC(=N)N)C(=O)N[C@H](CCCCN)C(N)=O,,,"mouse, heart","intravenous, 20 mg/kg single dose, 7 days",,organ index,0.448
